Experimental data collected from several papers.
Compare with care: the assays were run in different laboratories.
DRD3: D(3) dopamine receptor (DRD3, Homo sapiens, UniProt P35462)
UniProt P35462, sequence (whole entry, looked up): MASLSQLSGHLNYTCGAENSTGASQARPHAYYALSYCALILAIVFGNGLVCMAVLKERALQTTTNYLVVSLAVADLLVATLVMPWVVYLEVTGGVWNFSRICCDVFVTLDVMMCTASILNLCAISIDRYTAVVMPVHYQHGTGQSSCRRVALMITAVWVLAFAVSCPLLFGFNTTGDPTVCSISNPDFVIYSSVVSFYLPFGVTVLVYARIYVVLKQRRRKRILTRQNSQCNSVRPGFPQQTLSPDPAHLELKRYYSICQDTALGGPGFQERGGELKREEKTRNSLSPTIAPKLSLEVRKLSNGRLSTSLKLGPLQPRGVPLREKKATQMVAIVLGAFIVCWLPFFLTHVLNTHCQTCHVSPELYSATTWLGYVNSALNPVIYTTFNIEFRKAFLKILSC
FOLH1: Glutamate carboxypeptidase 2 (FOLH1, Homo sapiens, UniProt Q04609)
UniProt Q04609, sequence (whole entry, looked up): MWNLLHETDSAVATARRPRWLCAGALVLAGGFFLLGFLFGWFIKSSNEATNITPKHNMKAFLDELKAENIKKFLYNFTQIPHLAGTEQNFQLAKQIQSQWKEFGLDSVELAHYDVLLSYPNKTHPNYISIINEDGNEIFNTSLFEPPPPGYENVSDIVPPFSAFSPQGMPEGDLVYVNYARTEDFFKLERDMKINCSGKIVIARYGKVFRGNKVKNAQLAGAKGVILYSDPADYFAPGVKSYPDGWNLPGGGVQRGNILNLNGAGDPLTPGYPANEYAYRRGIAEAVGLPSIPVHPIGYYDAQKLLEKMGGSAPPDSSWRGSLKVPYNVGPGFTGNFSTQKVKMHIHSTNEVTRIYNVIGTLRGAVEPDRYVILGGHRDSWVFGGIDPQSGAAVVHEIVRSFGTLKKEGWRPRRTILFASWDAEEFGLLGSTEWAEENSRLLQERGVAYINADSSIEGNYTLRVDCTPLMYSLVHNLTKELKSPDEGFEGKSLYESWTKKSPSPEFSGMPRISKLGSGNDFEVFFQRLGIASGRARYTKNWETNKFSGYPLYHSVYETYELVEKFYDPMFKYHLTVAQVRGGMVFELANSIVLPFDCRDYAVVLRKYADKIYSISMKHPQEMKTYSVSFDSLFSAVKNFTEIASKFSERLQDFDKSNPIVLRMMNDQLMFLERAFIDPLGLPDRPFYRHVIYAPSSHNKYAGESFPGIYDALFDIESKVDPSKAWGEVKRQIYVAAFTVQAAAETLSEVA
Trypsin: Trypsin (Sus scrofa, UniProt P00761)
UniProt P00761, sequence (whole entry, looked up): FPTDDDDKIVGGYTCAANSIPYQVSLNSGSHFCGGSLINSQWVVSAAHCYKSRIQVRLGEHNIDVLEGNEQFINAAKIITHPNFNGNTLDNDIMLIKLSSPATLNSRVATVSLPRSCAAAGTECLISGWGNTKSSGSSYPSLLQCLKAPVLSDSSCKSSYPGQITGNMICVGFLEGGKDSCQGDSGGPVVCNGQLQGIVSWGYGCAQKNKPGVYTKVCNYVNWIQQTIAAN
LCK: Tyrosine-protein kinase Lck (LCK, Homo sapiens, UniProt P06239)
UniProt P06239, sequence (whole entry, looked up): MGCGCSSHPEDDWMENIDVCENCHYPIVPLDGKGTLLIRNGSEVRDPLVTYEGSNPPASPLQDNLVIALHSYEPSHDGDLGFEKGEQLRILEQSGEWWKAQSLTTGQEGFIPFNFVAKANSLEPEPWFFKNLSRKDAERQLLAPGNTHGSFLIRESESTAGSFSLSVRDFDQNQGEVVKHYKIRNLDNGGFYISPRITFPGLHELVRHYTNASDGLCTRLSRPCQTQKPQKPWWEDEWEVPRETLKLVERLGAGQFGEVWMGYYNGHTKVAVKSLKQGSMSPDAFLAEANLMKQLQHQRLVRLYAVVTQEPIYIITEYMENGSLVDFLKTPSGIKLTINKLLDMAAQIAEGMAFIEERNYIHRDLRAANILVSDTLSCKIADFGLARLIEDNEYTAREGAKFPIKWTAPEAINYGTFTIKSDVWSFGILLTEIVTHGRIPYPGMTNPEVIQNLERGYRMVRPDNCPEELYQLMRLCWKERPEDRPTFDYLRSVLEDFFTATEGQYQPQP
UniProt P00519, sequence (whole entry, looked up): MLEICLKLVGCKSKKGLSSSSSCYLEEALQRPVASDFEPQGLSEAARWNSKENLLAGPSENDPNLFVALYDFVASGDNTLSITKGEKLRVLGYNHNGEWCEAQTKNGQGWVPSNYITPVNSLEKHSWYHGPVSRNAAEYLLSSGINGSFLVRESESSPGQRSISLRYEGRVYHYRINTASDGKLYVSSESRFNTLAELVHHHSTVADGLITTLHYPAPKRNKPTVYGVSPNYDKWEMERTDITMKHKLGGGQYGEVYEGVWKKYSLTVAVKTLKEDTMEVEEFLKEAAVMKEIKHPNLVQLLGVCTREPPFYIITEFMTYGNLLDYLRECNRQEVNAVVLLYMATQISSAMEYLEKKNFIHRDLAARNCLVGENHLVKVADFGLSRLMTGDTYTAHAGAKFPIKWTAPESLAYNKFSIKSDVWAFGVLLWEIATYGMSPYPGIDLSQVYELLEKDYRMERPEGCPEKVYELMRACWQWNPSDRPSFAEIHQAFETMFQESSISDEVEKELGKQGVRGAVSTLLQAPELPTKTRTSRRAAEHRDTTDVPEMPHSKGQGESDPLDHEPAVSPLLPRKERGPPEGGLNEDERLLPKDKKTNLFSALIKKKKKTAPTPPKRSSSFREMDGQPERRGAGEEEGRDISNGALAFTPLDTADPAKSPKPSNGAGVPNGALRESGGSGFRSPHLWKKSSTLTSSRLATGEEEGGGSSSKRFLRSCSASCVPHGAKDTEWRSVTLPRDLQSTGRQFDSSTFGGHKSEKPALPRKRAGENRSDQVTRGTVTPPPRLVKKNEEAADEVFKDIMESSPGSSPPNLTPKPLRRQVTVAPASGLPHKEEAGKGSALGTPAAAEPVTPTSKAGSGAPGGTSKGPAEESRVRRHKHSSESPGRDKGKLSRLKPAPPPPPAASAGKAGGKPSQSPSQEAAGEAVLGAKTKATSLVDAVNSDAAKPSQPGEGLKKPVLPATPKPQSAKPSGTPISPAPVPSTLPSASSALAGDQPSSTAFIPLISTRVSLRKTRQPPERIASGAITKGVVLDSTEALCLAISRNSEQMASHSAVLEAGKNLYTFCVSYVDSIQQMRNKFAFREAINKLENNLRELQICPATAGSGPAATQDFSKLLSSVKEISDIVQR
UniProt P35367, sequence (whole entry, looked up): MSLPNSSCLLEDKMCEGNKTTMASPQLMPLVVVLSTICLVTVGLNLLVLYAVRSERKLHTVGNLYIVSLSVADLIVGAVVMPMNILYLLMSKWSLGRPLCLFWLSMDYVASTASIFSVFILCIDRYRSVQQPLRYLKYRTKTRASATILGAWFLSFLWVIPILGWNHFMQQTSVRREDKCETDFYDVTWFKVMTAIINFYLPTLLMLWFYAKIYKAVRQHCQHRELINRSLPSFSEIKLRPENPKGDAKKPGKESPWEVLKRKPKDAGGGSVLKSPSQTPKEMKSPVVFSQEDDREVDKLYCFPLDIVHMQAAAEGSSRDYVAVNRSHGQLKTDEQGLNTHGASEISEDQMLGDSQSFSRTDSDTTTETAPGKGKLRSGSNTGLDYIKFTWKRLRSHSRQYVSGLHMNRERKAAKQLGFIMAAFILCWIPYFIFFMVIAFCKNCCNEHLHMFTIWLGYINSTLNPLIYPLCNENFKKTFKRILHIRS

target = DRD3; observed = ligand displacement; technique = radioligand; Ki = 0.12 µM; SMILES = C[C@H](O)CNCc1ccc(-c2cc(Cl)ccc2Cl)o1
target = FOLH1; observed = enzyme activity; action = inhibitor; technique = fluorescence; notes = lysate; Ki = 0.0111 µM; SMILES = O=C(O)CC[C@H](NC(=O)N[C@@H](CCCCNC(=O)CCCCCCC(=O)N[C@@H](CCCCNC(=O)C(Cc1ccccc1)NC(=O)C(Cc1ccccc1)NC(=O)CN1CCN(CC(=O)O)CCN(CC(=O)O)CCN(CC(=O)O)CC1)C(=O)O)C(=O)O)C(=O)O (some centres unmarked)
target = Trypsin; observed = enzyme activity; action = inhibitor; technique = absorbance; Ki = 1310 µM; SMILES = OB(O)c1cnn(-c2cc(Cl)ncn2)c1
target = FOLH1; observed = enzyme activity; action = inhibitor; technique = fluorescence; notes = lysate; Ki = 0.0108 µM; SMILES = O=C([O-])CN1CCN(CC(=O)O)C[C@H](Cc2ccc(NC(=S)NCCCCC(NC(=O)CCCCCCC(=O)NCCCC[C@H](NC(=O)N[C@@H](CCC(=O)O)C(=O)O)C(=O)O)C(=O)O)cc2)N(CC(=O)[O-])Cc2cccc(n2)C1.[Cu+2] (some centres unmarked)
target = DRD3; observed = ligand displacement; technique = radioligand; Ki = 0.16 µM; SMILES = OC(CN1CCN(c2nsc3ccccc23)CC1)c1cccs1 (centres unmarked)
target = DRD3; observed = ligand displacement; technique = radioligand; Ki = 6.9 µM; SMILES = CC1Cc2ccccc2N1C(=O)CN1CCN(Cc2ccccc2)CC1 (centres unmarked)
target = CA2 (Homo sapiens, UniProt P00918); observed = enzyme activity; action = inhibitor; technique = stopped-flow; Ki = 41 µM; SMILES = O=C1CCc2c(ccc3ccccc23)O1
target = DRD3; observed = ligand displacement; technique = radioligand; Ki = 0.141 µM; SMILES = CC(C)NCc1ccc(-c2cc(Cl)ccc2Cl)o1
target = DRD3; observed = ligand displacement; technique = radioligand; Ki = > 10 µM; SMILES = CC1Cc2ccccc2N1C(=O)CN1CCN(c2ccccc2)CC1 (centres unmarked)
target = LCK; observed = enzyme activity; action = inhibitor; Ki = 0.0318 µM; SMILES = CCOc1cnc(C#N)cc1-c1ccn2nc(NC(=O)C3CC3)cc2c1
target = Na(+)/H(+) exchange regulatory cofactor NHE-RF2 (Homo sapiens, UniProt Q15599); observed = ligand displacement; technique = FP; Ki = > 1000 µM; SMILES = CC[C@H](C)[C@H](NC(=O)[C@@H](NC(=O)[C@H](CO)NC(=O)[C@@H](NC(=O)[C@@H]1CCCN1C(=O)[C@H](CC(C)C)NC(=O)[C@H](CCCNC(=N)N)NC(=O)[C@H](CO)NC(=O)[C@H](CC(N)=O)NC(=O)[C@H](C)N)[C@@H](C)O)[C@@H](C)CC)C(=O)O
target = HRH1 (Homo sapiens, UniProt P35367); observed = ligand displacement; technique = radioligand; Ki = 0.089 µM; SMILES = Cn1ccc2c(N3CCN(CCCCOc4ccc5c(c4)NC(=O)CC5)CC3)cccc21
target = DRD3; observed = ligand displacement; technique = radioligand; Ki = 0.158 µM; SMILES = COCCNCc1ccc(-c2cc(Cl)cc(Cl)c2)o1
target = ABL1 (Homo sapiens, UniProt P00519); action = covalent inhibitor; technique = intact protein MS; notes = time-dependent labelling; Ki = 0.19 µM; SMILES = C=CS(=O)(=O)Oc1ccc(OC)c(-c2c[nH]c3ncc(-c4cncc(C(=O)N(C)C)c4)cc23)c1
target = LCK; observed = enzyme activity; action = inhibitor; Ki = 0.415 µM; SMILES = CN1CC[C@@H](COc2cnc(C#N)cc2-c2ccn3nc(NC(=O)C4CC4)cc3c2)C1
target = DRD3; observed = ligand displacement; technique = radioligand; Ki = 0.275 µM; SMILES = c1ccc2c(c1)OC[C@@H](CNCc1cccc3cccnc13)O2
target = Trypsin; observed = enzyme activity; action = inhibitor; Ki = > 5000 µM; SMILES = CC(C)Oc1ccc(B(O)O)c(F)n1

Some of these lines once more:
target = DRD3; observed = ligand displacement; technique = radioligand; Ki = 0.158 µM; SMILES = COCCNCc1ccc(-c2cc(Cl)cc(Cl)c2)o1
